Assay results collected from several papers.
Every numbered part comes from another study and shows a few of its results, in no order.

Series 1
Target: Sal-like protein 4, full length isoform A (SALL4, Homo sapiens, UniProt Q9UJQ4, residues 1-1053)
UniProt Q9UJQ4, sequence (whole entry, looked up): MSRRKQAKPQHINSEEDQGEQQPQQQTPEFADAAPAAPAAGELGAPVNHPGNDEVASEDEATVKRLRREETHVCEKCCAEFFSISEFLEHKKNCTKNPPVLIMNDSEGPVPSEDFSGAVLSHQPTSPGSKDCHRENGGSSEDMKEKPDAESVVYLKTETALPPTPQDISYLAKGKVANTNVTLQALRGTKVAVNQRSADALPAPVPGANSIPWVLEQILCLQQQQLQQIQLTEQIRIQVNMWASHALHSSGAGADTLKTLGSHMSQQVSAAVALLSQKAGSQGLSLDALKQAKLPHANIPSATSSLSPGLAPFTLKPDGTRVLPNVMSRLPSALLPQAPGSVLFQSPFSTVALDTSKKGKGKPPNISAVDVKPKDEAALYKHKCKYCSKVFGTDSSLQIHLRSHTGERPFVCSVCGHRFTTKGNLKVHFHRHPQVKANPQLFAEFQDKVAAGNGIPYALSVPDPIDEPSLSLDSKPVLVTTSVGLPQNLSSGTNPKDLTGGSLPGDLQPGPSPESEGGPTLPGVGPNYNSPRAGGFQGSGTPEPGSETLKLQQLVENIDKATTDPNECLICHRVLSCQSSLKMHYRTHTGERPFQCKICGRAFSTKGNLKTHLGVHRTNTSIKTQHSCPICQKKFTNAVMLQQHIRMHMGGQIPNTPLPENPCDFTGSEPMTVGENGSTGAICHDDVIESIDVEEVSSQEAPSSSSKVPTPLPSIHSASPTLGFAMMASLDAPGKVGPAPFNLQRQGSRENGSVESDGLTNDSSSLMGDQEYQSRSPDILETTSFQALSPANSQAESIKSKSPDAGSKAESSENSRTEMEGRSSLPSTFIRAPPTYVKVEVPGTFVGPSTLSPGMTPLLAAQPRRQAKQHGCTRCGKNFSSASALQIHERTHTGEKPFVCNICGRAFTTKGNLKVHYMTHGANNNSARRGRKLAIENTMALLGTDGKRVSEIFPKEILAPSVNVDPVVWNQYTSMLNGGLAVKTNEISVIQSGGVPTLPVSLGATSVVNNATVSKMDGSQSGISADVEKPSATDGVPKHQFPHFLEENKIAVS
Technique: universal PBM
Form: double-stranded DNA, one strand shown
Sample: in vitro
Concentration: 600 nM
Notes: 8-mer, flanks averaged, mean of replicates
Direction: higher = stronger binding
`AGGTTTGA` has an E-score of -0.0826.
For `AGATCATG`, the E-score was -0.0857.
`GGGGACCA` has an E-score of -0.358.
The E-score of `CGAATGGA` is reported as -0.128.
With `AGCCATCC` the E-score was -0.285.
The E-score of `ACCACTAG` is reported as 0.00351.
With `ACGATGAT` the E-score was 0.0361.
For `CTGCGAAG`, the E-score was -0.213.
With `ATCGCCGA` the E-score was -0.0982.
`CCGTTTCA` has an E-score of -0.00656.
`CCAACTTC` has an E-score of -0.00193.
`ATCTAGGA` gave an E-score of 0.0528.
`CTTTTACC` gave an E-score of 0.0118.
For `CCGTATAC`, the E-score was 0.133.
`CTTGAGTC` has an E-score of -0.0811.
The E-score of `CGAATGTC` is reported as 0.0331.
`ATGGTGGA` gave an E-score of -0.0595.
`CTTCTAGC` has an E-score of -0.215.
`AAAGAACG` gave an E-score of 0.099.
`GGTCTTGA` gave an E-score of -0.206.
The E-score of `AGCGCATC` is reported as -0.143.

Series 2
Target: Interferon regulatory factor 5, full length, phosphomimetic (IRF5, Homo sapiens, UniProt Q13568-2, residues 1-514, K96S/S451D/S453D/S456D/S462D)
Technique: protein-binding microarray
Form: double-stranded DNA, one strand shown
Sample: in vitro
Concentration: 250 nM
Notes: 60-bp whole probe
Added: salmon DNA 0.4 mg/ml
Relative to: random background probes
Direction: higher = stronger binding
Constant ends, left off below: GCCTAGCAC … GTCTTGATTCGCTTGACGCTGCTG
For `CTCAAGATTCCTCTCACCTCGTGCTAG`, the log fluorescence was 0.14 z-score.
For `TTAGGTCTCTTTTTCCTTTAGTGCTAG`, the log fluorescence was 0.543 z-score.
For `AAAGATTTATCAAATGTGGGAGTGCTA`, the log fluorescence was 0.266 z-score.
For `TTAGGTATCGACTTTCGGTCAGTGCTA`, the log fluorescence was 9.85 z-score.
With `TCAAGTCCCATGTTGCAGACTGTGCTA` the log fluorescence was -0.362 z-score.
The log fluorescence of `TCACATTTTTTTTTTCTACTGTGCTAG` is reported as 1.35 z-score.
For `TTAGATATCCGTATCGATTAGTGCTAG`, the log fluorescence was 4.58 z-score.
For `AGGATCCAGCCTGCAACCTCGTGCTAG`, the log fluorescence was -0.547 z-score.
For `GACGATTTCAGTTTCGAGGCGTGCTAG`, the log fluorescence was 6.24 z-score.
The log fluorescence of `GACGATCTCAGTCTCGAGTCGTGCTAG` is reported as -0.0637 z-score.
The log fluorescence of `GACGGTCTTCTTCTCCTGACGTGCTAG` is reported as 0.0517 z-score.
The log fluorescence of `GACGGTATCCTACTGCTGGCGTGCTAG` is reported as -0.104 z-score.
With `TTAGATCTCAGTTTCAATTAGTGCTAG` the log fluorescence was 2.82 z-score.
`GACGGTTCCCTTTTCCTGATGTGCTAG` has a log fluorescence of 0.211 z-score.
For `GACGGTTTCGACTATCGGGATGTGCTA`, the log fluorescence was 7.32 z-score.
With `TCAGGCTTTCCTTTATGACTGTGCTAG` the log fluorescence was 0.164 z-score.
With `TTAGATCTCAGTCTCGAGTAGTGCTAG` the log fluorescence was 0.272 z-score.
The log fluorescence of `GACGATTTCGGGTATCGATACGTGCTA` is reported as 7.33 z-score.
For `ATTGGTCTTCACTTGGCAAAGTGCTAG`, the log fluorescence was 0.176 z-score.

Series 3
Target: TAR DNA-binding protein 43, full length, His tag (TARDBP, Homo sapiens, UniProt Q13148, residues 1-414)
Technique: RNA Bind-n-Seq
Form: RNA
Sample: in vitro
Concentration: 20 nM
Notes: 6-mer, flanks averaged, single round
Added: 150 mM LiCl
Relative to: input library
Direction: higher = stronger binding
Under “6-mer enrichment (R)”, `ACCAAG` is recorded as 0.836.
Under “6-mer enrichment (R)”, `CCCUCU` is recorded as 1.11.
For `AAAGGU`, “6-mer enrichment (R)” read 0.93.
For `CCCUGG`, “6-mer enrichment (R)” read 1.03.
`GAUACU` — result for “6-mer enrichment (R)”: 0.834.
Under “6-mer enrichment (R)”, `AUUGGG` is recorded as 1.15.
Under “6-mer enrichment (R)”, `CAUCGU` is recorded as 0.867.
For `UAGUCA`, “6-mer enrichment (R)” read 0.846.
For `GCGCUU`, “6-mer enrichment (R)” read 0.963.
`GGGGAU` — result for “6-mer enrichment (R)”: 1.21.
Under “6-mer enrichment (R)”, `ACAGAA` is recorded as 0.833.
For `CUUUGG`, “6-mer enrichment (R)” read 0.992.
`CUGGGA`: “6-mer enrichment (R)” 0.972.
`AUUUAG` — result for “6-mer enrichment (R)”: 1.
For `GAAUCU`, “6-mer enrichment (R)” read 0.838.
Under “6-mer enrichment (R)”, `GACACA` is recorded as 0.923.
For `AUACCC`, “6-mer enrichment (R)” read 0.966.

Series 4
Target: Histone acetyltransferase KAT6A, winged helix 1, GST fusion (KAT6A, Homo sapiens, UniProt Q92794, residues 1-85)
Technique: protein binding microarray
Form: double-stranded DNA, one strand shown
Sample: in vitro
Concentration: not given
Notes: 8-mer, flanks averaged, mean of 2 arrays, mostly near background
Relative to: not given
Direction: higher = stronger binding
Construct (chain): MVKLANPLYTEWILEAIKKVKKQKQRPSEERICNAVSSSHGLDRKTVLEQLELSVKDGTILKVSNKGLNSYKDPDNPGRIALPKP
With `GTCTACAC` the E-score was -0.0979.
`CTTGTTGC` gave an E-score of -0.109.
The E-score of `GAAGCGGC` is reported as 0.374.
The E-score of `ATCCCGAG` is reported as 0.25.
With `AGCCGCCA` the E-score was 0.282.
For `ACCTTATG`, the E-score was -0.196.
`TGCAGTAA` has an E-score of -0.136.
`ACTTGTCA` has an E-score of -0.0735.
With `AACCCGCC` the E-score was 0.402.
With `AATTGTAG` the E-score was -0.151.
`CAAAGGTC` has an E-score of -0.13.
For `GGTATCTA`, the E-score was -0.016.
The E-score of `CAAAGAAA` is reported as -0.22.
For `CGTATGAG`, the E-score was 0.0318.
`CGGAGGAC` has an E-score of 0.194.
With `GATATCAC` the E-score was -0.106.
With `CAACATGG` the E-score was -0.168.
`CTCAGTAA` has an E-score of 0.0523.
`CCTGTTAG` gave an E-score of -0.171.
`CAGTTAAC` has an E-score of 0.11.
For `GACATAGC`, the E-score was -0.0389.
With `CGTGGGTC` the E-score was -0.153.

Series 5
Target: Ras GTPase-activating protein-binding protein 1, full length (G3BP1, Homo sapiens, UniProt Q13283)
UniProt Q13283, sequence (whole entry, looked up): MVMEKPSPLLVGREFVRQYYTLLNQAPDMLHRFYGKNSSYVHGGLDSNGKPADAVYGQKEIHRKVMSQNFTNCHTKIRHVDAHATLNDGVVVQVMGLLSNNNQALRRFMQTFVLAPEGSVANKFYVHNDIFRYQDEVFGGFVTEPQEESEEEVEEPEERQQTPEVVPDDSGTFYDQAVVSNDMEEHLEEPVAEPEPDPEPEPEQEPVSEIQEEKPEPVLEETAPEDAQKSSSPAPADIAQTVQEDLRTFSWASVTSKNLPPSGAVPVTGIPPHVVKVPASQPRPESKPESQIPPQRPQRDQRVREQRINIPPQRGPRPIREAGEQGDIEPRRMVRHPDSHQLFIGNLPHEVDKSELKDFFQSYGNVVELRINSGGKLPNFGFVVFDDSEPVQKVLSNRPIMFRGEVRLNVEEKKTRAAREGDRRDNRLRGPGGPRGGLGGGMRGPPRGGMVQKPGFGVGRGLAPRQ
Technique: RNA Bind-n-Seq
Form: RNA
Sample: in vitro
Concentration: 200 nM
Notes: whole 134-nt RNA, ends assumed
Added: 150 mM KCl
Relative to: input library
Direction: higher = stronger binding
Constant ends, left off below: GGGAGUUCUACAGUCCGACGAUC … UGGAAUUCUCGGGUGUCAAGG
The log2 enrichment of `UGGGAGGUGGAUUUUGUUUAUUUUUUUAGCUCAUUUCCAGGGGUGGGAAUUGUUUUUUAAUAUGUGUCAUGAAUAAAGUUGUUUUUGAAA` is reported as 0.204.
For `CAAGUCCUGUGCUACACAUCGUAUGUACCGAAUCAAACCCAAACCCAAAUUUAAAAAAGUAUUAUGUUACGCCGUUCGGAUCUGCACUUC`, the log2 enrichment was -0.472.
For `GCAGGAAGUAAAAACAAAUGGAAAUGCUUCGGAUCGUGGCAGGGGUGGGGGUUGCUAAGGAAAGGGUGGGAUGGGAGUGGGUAAAGAGUU`, the log2 enrichment was 1.25.
For `UAACUUGAGAGGAGGAUCUGAUGGAUAUGGCAGUGGACGUGGAUUUGGGGAUGGCUAUAAUGGGUAUGGAGGAGGACCUGGAGGUGGCAA`, the log2 enrichment was 0.412.
For `CACAGACAACACGCAUCCACACAGACACAGAGGGAAGGGGUUGGGAUGGGGACAGGGUGCACAGCAGGGCGGGGUAGGACCCCAGCCCCU`, the log2 enrichment was 1.75.
`ACCAUGCAGGUGGGCAUCUUUGGGAAGUGGGGCAAGGGGGGAAUAGGGAGGGGGGUAACACUUUGGGAACAGGUGGUCCCAGGUCGUUUC` gave a log2 enrichment of 1.02.
With `CCUGUGCUACACAUCGUAUGUACCGAAUCGGGGUUUUUUGGGUUUUUUGGGUUUUUUGGGAAAGUAUUAUGUUACGCCGUUCGGAUCUGC` the log2 enrichment was -0.553.
With `ACCAUGCAGGUGGGCAUCUUUGGGAAGUGGGGCAAGGGGGGGAUAGGGAGGGGGGUAACACAUUGGGAACAGGUGGUCCCAGGUCGUUUC` the log2 enrichment was 1.11.
With `CAAGUCCUGUGCUACACAUCGUAUGUACCGAAUCGGGGCCCGGGCCCGGCCCGGGAAAGUAUUAUGUUACGCCGUUCGGAUCUGCACUUC` the log2 enrichment was -0.789.
The log2 enrichment of `UUUUCUGUUUGAAACAGUUUUAUACUUUCUGAUAUAGUACUUGAAAUUCUUACCAGAAAAUUACUUUGGAGUUUUGAAGCCUUUAUUAAU` is reported as -1.1.

Some of these lines once more (series 4):
`CTCAGTAA` has an E-score of 0.0523.
`CCTGTTAG` gave an E-score of -0.171.
`CAGTTAAC` has an E-score of 0.11.
With `CGTGGGTC` the E-score was -0.153.
With `AATTGTAG` the E-score was -0.151.
With `GATATCAC` the E-score was -0.106.
The E-score of `GAAGCGGC` is reported as 0.374.
With `AACCCGCC` the E-score was 0.402.
`CGGAGGAC` has an E-score of 0.194.
With `AGCCGCCA` the E-score was 0.282.
